Measurements gathered from unrelated publications.
Numbers after ± are the reported error.
gdpP residues 84-659: gdpP, residues 84-659 (Bacillus subtilis, UniProt P37484)
EGFR: Epidermal growth factor receptor (EGFR, Homo sapiens, UniProt P00533)
RMS3: RMS3 (Lathyrus oleraceus, UniProt A0A109QYD3)
KCNQ2: Potassium voltage-gated channel subfamily KQT member 2 (KCNQ2, Homo sapiens, UniProt O43526)

Compound	target or system	test	test system	conditions	how to read	quantity	result
CN(C)c1ncnc2c1ncn2[C@@H]1O[C@@H]2COP(=O)(O)O[C@H]3[C@@H](O)[C@H](n4cnc5c(N(C)C)ncnc54)O[C@@H]3COP(=O)(O)O[C@H]2[C@H]1O	gdpP residues 84-659	substrate, HPLC		100 µM, 37 °C, upper limit if undegraded 24 h, added: enzyme 1 µM		degradation rate	≤ 0.001 mol/min/mol enzyme
N=C(N)SCc1ccc(B(O)O)cc1	Procathepsin L (CTSL, Homo sapiens, UniProt P07711)	enzyme activity, inhibitor		up to 10 µM, added: Z-FR-AMC 10 µM		IC50	inactive
COc1cc(COc2ccc3c(c2)CN(C(=O)[C@H](CCC(=O)O)NC(=O)[C@H](CC(=O)O)NC(=O)[C@H](CC(=O)O)NC(=O)[C@H](CCC(=O)O)NC(=O)[C@@H](CCCNC(=N)N)NC(=O)[C@@H](CCCNC(=N)N)NC(=O)[C@@H](CCCNC(=N)N)NC(=O)[C@H](C)N(C)C(=O)[C@H](Cc2ccccc2)NC(=O)[C@@H](NC(=O)[C@H](Cc2ccccc2)NC(=O)[C@H](C)NC(=O)[C@H](CCCNC(=N)N)N(C)C(=O)[C@@H]2CCCN2C(=O)[C@H](CCCNC(=N)N)NC(=O)CNC(=O)c2ccc4c(c2)C2(OC4=O)c4ccc(O)cc4Oc4cc(O)ccc42)[C@@H](C)OCc2cc(OC)c(OC)cc2[N+](=O)[O-])[C@H](C(=O)N[C@@H](CCC(=O)O)C(=O)N[C@@H](CCC(=O)O)C(=O)N[C@H](C(N)=O)C(C)C)C3)c([N+](=O)[O-])cc1OC	EGFR	reporter phosphorylation, substrate		concentration not given, 60 min, after photoactivation		phosphorylation	56.8 ± 0.4%
O=C(O)c1ccc(NC(=O)c2cccc(CC3CCCCC3)n2)c(Cc2ccccc2)c1	Capsid scaffolding protein, protease domain (Human herpesvirus 8 type P, UniProt Q2HRB6, R82Q)	enzyme activity, inhibitor		pH 8	baseline: mutant over wild type	IC50 ratio	3 to 4 fold
CCCCC/C=C\C/C=C\C/C=C\C/C=C\CCCC(=O)NC(CO)C(=O)O (stereo in doubt)	KCNQ2 (Homo sapiens, UniProt O43526, R291Q)	ion current, two-electrode voltage clamp		10 µM	baseline: wild type	Gmax increase	decreased
CCCC[C@H](NC(=O)CNC(=O)CNC(=O)c1ccc(NN)nc1)C(=O)N[C@H]1CC(=O)NCCCC[C@@H](C(N)=O)NC(=O)[C@H](Cc2c[nH]c3ccccc23)NC(=O)[C@H](CCCNC(=N)N)NC(=O)[C@@H](Cc2ccccc2)NC(=O)[C@H](Cc2c[nH]cn2)NC1=O [technetium-99m labelled]			C57 mouse, B16/F1 melanoma-bearing, muscle	intravenous, 0.5 h		tissue uptake	0.27 ± 0.05 %ID/g
Nc1ncnc2c1ncn2[C@@H]1O[C@@H]2COP(=O)(O)O[C@H]3[C@@H](O)[C@H](n4cnc5cncnc54)O[C@@H]3COP(=O)(O)O[C@H]2[C@H]1O	gdpP residues 84-659	substrate, HPLC		100 µM, 37 °C, upper limit if undegraded 24 h, added: enzyme 1 µM		degradation rate	1.1 ± 0.1 mol/min/mol enzyme
CC1=CC(Oc2c(F)cc3c(C)cc(=O)oc3c2F)OC1=O (racemic)	RMS3	enzyme activity, substrate, DiFMU release		pre-steady state		K1/2	3.83 ± 1.8 µM
O=C(Cc1ccc(F)cc1)N1CCN(Cc2noc(-c3cccc(Cl)c3)n2)CC1	KCNQ2	potassium current, activator, whole-cell patch clamp	CHO, stable	20 µM	baseline: current before compound	current fold increase	1.08 ± 0.06
CCCCCn1cc(C(=O)c2ccc3ccccc3c2)c2ccccc21	CNR2 (Homo sapiens, UniProt P34972, I110L)	Gαi1 engagement, agonist, BRET			baseline: reference agonist at wild-type CB2	Emax	66.5 ± 6.5%
O=C(O)COc1ccc(Cl)cc1	Chloride channel protein (Torpedo marmorata, UniProt P21564, C212S)	open channel block, noise analysis		-140 mV		off-rate constant	490 s⁻¹
Nc1nc2ncc(CNc3ccc(C(=O)N[C@@H](CCC(=O)NCCOCCOCCNC(=O)CN4CCN5CCN(CC4)CC(=O)[O][Al]([18F])[O]C(=O)C5)C(=O)O)cc3)nc2c(=O)[nH]1	FOLR1 (Homo sapiens, UniProt P15328)	radioligand saturation binding	CAL-51 xenograft homogenate			Bmax	36 nM
Nc1nc2c(c(=O)[nH]1)[n+](Cc1ccc(S(=O)(=O)F)cc1)cn2[C@@H]1O[C@H](COP(=O)(O)O)[C@@H](O)[C@H]1O	NT5C3B (Homo sapiens, UniProt Q969T7)	covalent modifier, mass spectrometry				covalent labelling rate constant	~0.054 min⁻¹
N=C(N)NCCC[C@@H]1NC(=O)[C@H](CCCCNC(=O)CCOCCOCCOCCOCCNC(=O)CN2CCN(CC(=O)O)CCN(CC(=O)O)CCN(CC(=O)O)CC2)NC(=O)[C@@H](Cc2ccccc2)NC(=O)[C@H](CC(=O)O)NC(=O)CNC1=O [indium-111 labelled]			female athymic nude mice, kidney	intravenous, 3 µCi, 0.5 h, U-87 MG glioma xenograft		tissue uptake	10.9 ± 3.96 %ID/g
CC(=O)N[C@@H](CC(C)C)C(=O)N[C@@H](CCC(=O)O)C(=O)N[C@@H](Cc1c[nH]cn1)C(=O)N[C@@H](CC(=O)O)C(=O)Nc1ccc2c(C)cc(=O)oc2c1	Caspase-1 (CASP1, Homo sapiens, UniProt P29466)	substrate cleavage, substrate, fluorogenic AMC release		enzyme 0.25 activity units/µL		Vmax	2700 ± 85.5 RFU/min
CC1=C(C)C(Oc2c(F)cc3c(C)cc(=O)oc3c2F)OC1=O (racemic)	RMS3	enzyme activity, substrate, DiFMU release		pre-steady state		kcat/K1/2	400 M⁻¹ s⁻¹

Compound	target or system	test	test system	conditions	how to read	quantity	result
CCN(Cc1ccccc1)C(=O)CCc1nc(CN2CCN(C(=O)Cc3ccc(OC)c(OC)c3)CC2)no1	KCNQ2	whole-cell patch clamp	CHO stable	100 nM		V1/2 of activation	-40.3 ± 22 mV
Nc1ncnc2c1ncn2[C@@H]1O[C@H](COP(=O)(O)OP(=O)(O)OC[C@H]2O[C@@H](O)[C@H](O)[C@@H]2O)[C@@H](O)[C@H]1O	Protein mono-ADP-ribosyltransferase PARP14, macrodomain 2 (PARP14, Homo sapiens, UniProt Q460N5)	isothermal titration calorimetry		concentration not given		binding stoichiometry	0.96 ± 0.01
C[C@]12CC[C@H](O)CC1CCC1C2[C@H](O)C(=O)[C@]2(C)[C@@H](c3ccc(=O)oc3)CC[C@]12O (some centres unmarked)	mixed recombinant human SULT isoforms	sulfation, substrate				Km	40.2 ± 5.1 µM
CC(C)P(=[Se])(NP(=[Se])(C(C)C)C(C)C)C(C)C	Alpha-amylase (Bacillus subtilis, UniProt P00691)	fluorescence quenching		concentration not given, 298 K		number of binding sites	0.59 ± 0.03
CCCNC(=O)[C@H](CC(C)C)NC(=O)[C@H](Cc1c[nH]cn1)NC(=O)CNC(=O)[C@@H](NC(=O)[C@H](C)NC(=O)[C@H](Cc1c[nH]c2ccccc12)NC(=O)[C@H](CCC(N)=O)NC(=O)[C@@H](Cc1ccccc1)NC(=O)CCCCCNC(=O)CN1CCN(CC(=O)O)CCN(CC(=O)O)CCN(CC(=O)O)CC1)C(C)C [indium-111 labelled]	Gastrin-releasing peptide receptor (Mus musculus, UniProt P21729)	lung uptake	CF-1 mouse	dose not given, 1 h post-injection, added: bombesin 100 µg blocking	baseline: unblocked	uptake reduction	~75%
c1ccc(CN2CCOCCOCCN(CCCCCCCCCCN3CCOCCOCCN(CCCCCCCCCCN4CCOCCOCCN(Cc5ccccc5)CCOCCOCC4)CCOCCOCC3)CCOCCOCC2)cc1	Quinolone resistance protein NorA (Staphylococcus aureus, UniProt P0A0J7)	inhibitor	1199B	4 µM, 20 min		ethidium bromide accumulation	no effect
COC(=O)C=CCCC(NC(=O)c1ccncc1C(=O)O)C(=O)NC(C(=O)N1CC(=O)CC1C(=O)NC(C(=O)NC(C(N)=O)C1CCCCC1)C1CCCCC1)C(C)(C)C (centres unmarked)	Protein-glutamine gamma-glutamyltransferase E (Homo sapiens, UniProt Q08188)	transamidation activity, inhibitor			baseline: TG3 IC50 over FXIII-A2 IC50	selectivity ratio	2790
C=CCN1CCc2cccc3c2[C@H]1Cc1ccc(O)c(O)c1-3	Carbamate kinase (Giardia intestinalis, UniProt A8BB85)	enzyme activity, inhibitor, luminescence, ATP detection	Giardia lamblia			maximal inhibition	89%
CS(C)(=O)=Nc1ccc(-c2ccc(-c3nc4cc(O[C@@H]5CO[C@H]6[C@@H]5OC[C@H]6O)[nH]c4cc3F)cc2)cc1	PRKAA2/PRKAB1, with gamma2 (Homo sapiens, UniProt P54646+Q9Y478)	enzyme activity, activator		60 min, 50% above basal activity, added: ATP 50 µM		EC150	0.252 nM
CC(C)C[C@@H](NC(=O)[C@@H](CCCCN)NC(=O)[C@@H](C)NC(=O)[C@@H](CCCNC(=N)N)NC(=O)[C@@H](Cc1c[nH]cn1)NC(=O)[C@H](NC(=O)[C@@H](CO)NC(=O)[C@H](NC(=O)[C@@H](Cc1c[nH]c2ccccc12)NC(=O)[C@H](N)Cc1ccc(O)cc1)C(C)C)[C@H](C)O)C(=O)N1CCC[C@@H]1C(=O)N[C@H](CC(=O)O)C(N)=O	Microtubule-associated protein tau, PHF6 peptide (MAPT, Homo sapiens, UniProt P10636)	ThT fluorescence		500 µM, room temperature, 50 µM tau		fibril formation inhibition	no inhibition
O=C(Nc1cccc(-c2nn[nH]n2)c1)c1cc(-c2ncccn2)cc(C(F)(F)F)c1	CTX-M-27 beta-lactamase	surface plasmon resonance				Kd/Ki difference	2 to 3 fold
O=C(Nc1ccc(-c2nc3ncccc3o2)cc1)c1ccccc1Br	Nucleoside transporter 1 (Plasmodium vivax, UniProt A5K8B0, N329S)	[3H]adenosine uptake			baseline: N329S mutant over wild type	IC50 ratio	2.6 fold
N=C(N)NCCC[C@@H]1NC(=O)[C@H](CCCCNC(=O)CCOCCOCCOCCOCCNC(=O)CC[C@H](NC(=O)CCOCCOCCOCCOCCNC(=O)CC[C@H](NC(=O)CN2CCN(CC(=O)O)CCN(CC(=O)O)CCN(CC(=O)O)CC2)C(=O)NCCOCCOCCOCCOCCC(=O)N[C@@H](CCC(=O)NCCOCCOCCOCCOCCC(=O)NCCCC[C@@H]2NC(=O)[C@@H](Cc3ccccc3)NC(=O)[C@H](CC(=O)O)NC(=O)CNC(=O)[C@H](CCCNC(=N)N)NC2=O)C(=O)NCCOCCOCCOCCOCCC(=O)NCCCC[C@@H]2NC(=O)[C@@H](Cc3ccccc3)NC(=O)[C@H](CC(=O)O)NC(=O)CNC(=O)[C@H](CCCNC(=N)N)NC2=O)C(=O)NCCOCCOCCOCCOCCC(=O)NCCCC[C@@H]2NC(=O)[C@@H](Cc3ccccc3)NC(=O)[C@H](CC(=O)O)NC(=O)CNC(=O)[C@H](CCCNC(=N)N)NC2=O)NC(=O)[C@@H](Cc2ccccc2)NC(=O)[C@H](CC(=O)O)NC(=O)CNC1=O [indium-111 labelled]			athymic nude mice, female, U-87 MG glioma xenograft, tumour and muscle	intravenous, 0.5 h	baseline: tumour over muscle	tumour to tissue ratio	5.83 ± 0.8
CCCCCCc1ccc(Oc2ccccc2C#N)c(O)c1	Enoyl-[acyl-carrier-protein] reductase [NADPH] FabI (Staphylococcus aureus, UniProt Q6GI75, K41N/R40Q/S44L)					dissociation rate constant	0.08 ± 0.01 h⁻¹
CC(C)CC(NC(=O)C(NC(=O)NC(C(=O)O)C(C)C)C1CCNC(=N)N1)C(=O)NCCCNC(C(=O)O)C(OC1OC(CN)C(O)C1O)C1OC(n2ccc(=O)[nH]c2=O)C(O)C1O (centres unmarked)	mraY (Aquifex aeolicus, UniProt O66465)	binding, isothermal titration calorimetry		wild type, without Mg2+		ΔH	-9.1 ± 0.6 kcal/mol
CC(=O)NC(Cc1ccc(Br)c(Cl)c1)C(=O)N[C@@H](C)C(=O)N1CCC[C@H]1C(=O)N1CCC[C@H]1C(=O)N[C@@H](CCC(=O)O)C(=O)N[C@@H](Cc1c[nH]cn1)C(=O)N[C@@H](CO)C(=O)N[C@H](C(=O)N[C@@H](C)C(N)=O)[C@@H](C)OP(=O)(O)O (some centres unmarked)	EGFR	cell-free assay, inhibitor		10 µM		inhibition	0.14%

For quick reference, copied from above:
Compound	target or system	test	test system	conditions	how to read	quantity	result
O=C(O)c1ccc(NC(=O)c2cccc(CC3CCCCC3)n2)c(Cc2ccccc2)c1	Capsid scaffolding protein, protease domain (Human herpesvirus 8 type P, UniProt Q2HRB6, R82Q)	enzyme activity, inhibitor		pH 8	baseline: mutant over wild type	IC50 ratio	3 to 4 fold
N=C(N)NCCC[C@@H]1NC(=O)[C@H](CCCCNC(=O)CCOCCOCCOCCOCCNC(=O)CC[C@H](NC(=O)CCOCCOCCOCCOCCNC(=O)CC[C@H](NC(=O)CN2CCN(CC(=O)O)CCN(CC(=O)O)CCN(CC(=O)O)CC2)C(=O)NCCOCCOCCOCCOCCC(=O)N[C@@H](CCC(=O)NCCOCCOCCOCCOCCC(=O)NCCCC[C@@H]2NC(=O)[C@@H](Cc3ccccc3)NC(=O)[C@H](CC(=O)O)NC(=O)CNC(=O)[C@H](CCCNC(=N)N)NC2=O)C(=O)NCCOCCOCCOCCOCCC(=O)NCCCC[C@@H]2NC(=O)[C@@H](Cc3ccccc3)NC(=O)[C@H](CC(=O)O)NC(=O)CNC(=O)[C@H](CCCNC(=N)N)NC2=O)C(=O)NCCOCCOCCOCCOCCC(=O)NCCCC[C@@H]2NC(=O)[C@@H](Cc3ccccc3)NC(=O)[C@H](CC(=O)O)NC(=O)CNC(=O)[C@H](CCCNC(=N)N)NC2=O)NC(=O)[C@@H](Cc2ccccc2)NC(=O)[C@H](CC(=O)O)NC(=O)CNC1=O [indium-111 labelled]			athymic nude mice, female, U-87 MG glioma xenograft, tumour and muscle	intravenous, 0.5 h	baseline: tumour over muscle	tumour to tissue ratio	5.83 ± 0.8
